Experimental data pooled from the literature.
Lines come from different studies, so protocols differ. Numbers after ± are the reported error.

| Structure (SMILES) | cell line | test | test system | conditions | how to read | endpoint | value |
| --- | --- | --- | --- | --- | --- | --- | --- |
| COCCNC(=O)C(NC(=O)C(O)(Cc1ccccc1)CN(Cc1ccc(Br)cc1)NC(=O)C(NC(=O)OC)C(C)(C)C)C(C)C (centres unmarked) | Caco-2 | – | – | pH 7.4, 1% BSA in receiver | – | Papp A-to-B | 4.8 ± 0.1 ×10⁻⁶ cm/s |
| CC1(C)CCCC(C)(C2CCC3(C)C2C(O)CC2C4(C)CCC(OC(=O)Nc5ccccc5)C(C)(C)C4C(O)CC23C)O1 (centres unmarked) | Hep3B | cell growth or viability, MTT | – | 24 h | – | IC50 | > 30 µM |
| Cc1ccc(S(=O)(=O)N2CC2C(=O)N(C)C)c2ccccc12 (centres unmarked) | Balb/c 3T3 fibroblasts | cytotoxicity, neutral red uptake | DMEM with 5% FBS | 24 h | – | IC50 | 12 ± 3 µM |
| COc1ccc(-c2coc3c(CC=C(C)C)c(O)c(CC=C(C)C)c(O)c3c2=O)cc1O | RAW264.7 | cell growth or viability, MTT | – | 12.5 µg/mL, 24 h | – | viability | 132% |
| CCCN(CC(=O)N(CCC)CC(=O)N(CCC)CC(=O)N(CCC)CC(=O)N(CC(=O)N(CCC)CC(=O)N(CCC)CC(=O)N(CCC)CC(=O)N(CCC)CC(=O)N(CC(=O)N(CCC)CC(=O)N(CCC)CC(=O)N(CCC)CC(=O)N(CCC)CC(=O)N(CC(N)=O)Cc1cn(CCCNC(=O)CCCOc2cccc(-c3nc4ccc(-c5nc6ccc(N7CCN(C)CC7)cc6[nH]5)cc4[nH]3)c2)nn1)Cc1cn(CCCNC(=O)CCCOc2cccc(-c3nc4ccc(-c5nc6ccc(N7CCN(C)CC7)cc6[nH]5)cc4[nH]3)c2)nn1)Cc1cn(CCCNC(=O)CCCOc2cccc(-c3nc4ccc(-c5nc6ccc(N7CCN(C)CC7)cc6[nH]5)cc4[nH]3)c2)nn1)C(=O)CNCc1cn(CCCNC(=O)CCCOc2cccc(-c3nc4ccc(-c5nc6ccc(N7CCN(C)CC7)cc6[nH]5)cc4[nH]3)c2)nn1 | C2C12 | flow cytometry | – | 5 µM, 14 h | – | ligand- and PI-positive cells | 13% |
| CNC(=O)C(Cc1ccccc1)NC(=O)C(O)(Cc1ccccc1)CN(Cc1ccc(Br)cc1)NC(=O)C(NC(=O)OC)C(C)(C)C (centres unmarked) | Caco-2 | – | – | pH 7.4 | relative to: B-to-A over A-to-B | efflux ratio | 0.8 |
| CC(C)(C)n1cc(CN(Cc2cn(CC(=O)O)nn2)Cc2cn(C(C)(C)C)nn2)nn1 | OVCAR-5 | cellular uptake, LC-ESI-MS/MS | – | 200 µM, 10 min, added: CuSO4 100 µM and ascorbate 500 µM | – | intracellular concentration | 4.3 ± 0.2 µM |
| CC1(C)CCCC(C)(C2CCC3(C)C2C(O)CC2C4(C)CCC(OC(=O)c5cn(-c6ccccc6)nn5)C(C)(C)C4C(OC(=O)c4cn(-c5ccccc5)nn4)CC23C)O1 (centres unmarked) | Hep3B | cell growth or viability, MTT | – | 24 h | – | IC50 | > 30 µM |
| CC[C@H](C)[C@H](NC(=O)[C@H](C)NC(=O)CNC(=O)[C@H](Cc1ccccc1)NC(=O)[C@H](CC(N)=O)NC(=O)[C@H](CC(N)=O)NC(=O)[C@H](CO)NC(=O)[C@H](CO)NC(=O)[C@H](Cc1c[nH]cn1)NC(=O)[C@@H](NC(=O)[C@H](CC(C)C)NC(=O)[C@H](Cc1ccccc1)NC(=O)[C@H](CC(N)=O)NC(=O)[C@H](C)NC(=O)[C@H](CC(C)C)NC(=O)[C@H](CCCNC(=N)N)NC(=O)[C@H](CCC(N)=O)NC(=O)[C@@H](NC(=O)[C@H](C)NC(=O)[C@@H]1CSSC[C@H](NC(=O)[C@@H](N)CCCCN)C(=O)N[C@@H](CC(N)=O)C(=O)N[C@@H]([C@@H](C)O)C(=O)N[C@@H](C)C(=O)N[C@@H]([C@@H](C)O)C(=O)N1)[C@@H](C)O)C(C)C)C(=O)N[C@@H](CC(C)C)C(=O)N[C@@H](CO)C(=O)N[C@@H](CO)C(=O)N[C@H](C(=O)N[C@@H](CC(N)=O)C(=O)N[C@H](C(=O)NCC(=O)N[C@@H](CO)C(=O)N[C@@H](CC(N)=O)C(=O)N[C@H](C(=O)N[C@@H](Cc1ccc(O)cc1)C(N)=O)[C@@H](C)O)C(C)C)[C@@H](C)O | INS-1 | AlamarBlue | – | 21 µM, 24 h | relative to: medium alone | viability | 62 ± 4% |
| COC(=O)NC(C(=O)NN(Cc1ccc(Br)cc1)CC(O)(Cc1ccccc1)C(=O)NCc1ccccc1)C(C)(C)C (centres unmarked) | Caco-2 | – | – | pH 7.4, 1% BSA in receiver | – | Papp B-to-A | 26.3 ± 0.2 ×10⁻⁶ cm/s |
| CCCCCc1ccc(S(=O)(=O)N2CC2C(=O)OC)cc1 (centres unmarked) | Balb/c 3T3 fibroblasts | cytotoxicity, neutral red uptake | DMEM with 5% FBS | 24 h | – | IC50 | 120 ± 25 µM |
| O=C1c2ccccc2C2(c3ccc(O)cc3Oc3cc(O)ccc32)N1CCS(=O)(=O)O | ARPE-19 monolayer | – | – | 100 µM, 360 min, apical to basolateral | – | Papp | 7.72 ± 1.13 ×10⁻⁶ cm/s |
| Nc1ncnc2c1c(F)cn2[C@@H]1O[C@H](CO)C[C@H]1O | MRC-5 SV2 | cytotoxicity, resazurin | medium with 5% FBS | 72 h | – | EC50 | 3.56 ± 0.8 µM |
| COc1cc2c(cc1O)[C@]1(O)C(=O)c3c(O)cc4c(c3O[C@@H]1CO2)C=CC(C)(C)O4 | A549 | cell growth or viability, MTT | – | 25 µg/mL | – | viability | 99.2% |
| COc1cc(CN2CCN(c3cccc(Cl)c3)CC2)c2cc3[n+](cc2c1O)CCc1cc2c(cc1-3)OCO2 | MDCK | cell growth or viability, SRB | – | 48 h | – | CC50 | 145 µg/mL |
| C=Cc1cn([C@@H]2O[C@H](CO)C[C@H]2O)c2ncnc(N)c12 | MRC-5 SV2 | cytotoxicity, resazurin | medium with 5% FBS | 72 h | – | EC50 | 25.6 ± 6.5 µM |

| Structure (SMILES) | cell line | test | test system | conditions | how to read | endpoint | value |
| --- | --- | --- | --- | --- | --- | --- | --- |
| N=C(N)NCC[C@@H]1NC(=O)[C@H](CCNC(=N)N)NC(=O)[C@H](CCNC(=N)N)NC(=O)[C@H](C(c2ccccc2)c2ccccc2)NC(=O)[C@H](Cc2c[nH]c3ccccc23)NC(=O)[C@H](C(c2ccccc2)c2ccccc2)NC(=O)[C@H](CCNC(=N)N)NC1=O | human red blood cells | hemolysis | – | – | – | HC50 | 190 µg/mL |
| CCCCCCCCCCCCCCCCCCCC(=O)N[C@@H](CCCCN)C(=O)N[C@@H](CCCCN)C(=O)N[C@@H](CCCCN)C(=O)N[C@@H](CCCCN)C(=O)N[C@@H](CCCCN)C(N)=O | human red blood cells | haemolysis | – | – | – | HC50 | 4.9 µg/mL |
| CC1(C)CCCC(C)(C2CCC3(C)C2C(O)CC2C4(C)CCC(O)C(C)(C)C4C(OC(=O)c4cn(-c5ccccc5)nn4)CC23C)O1 (centres unmarked) | Hep3B | cell growth or viability, MTT | – | 24 h | – | IC50 | > 30 µM |
| CC(C)C[C@@H]1NC(=O)[C@H](Cc2ccc3ccccc3c2)NC(=O)[C@H](CCCNC(=N)N)NC(=O)[C@H](CCCNC(=N)N)NC(=O)[C@H](CCCNC(=N)N)NC(=O)[C@H](CCCNC(=N)N)NC(=O)[C@H](Cc2ccc3ccccc3c2)NC1=O | human red blood cells | hemolysis | – | – | – | HC50 | 170 µg/mL |
| O=C(Nc1cc2nc(-c3ccc(F)c(F)c3)cn2cn1)N1CC[C@H](F)C1 | MRC-5 SV2 | – | – | concentration not given | – | cytotoxicity | not toxic |
| CC1(C)CCCC(C)(C2CCC3(C)C2C(O)CC2C4(C)CCC(OC(=O)C=Cc5ccccc5)C(C)(C)C4C(OC(=O)C=Cc4ccccc4)CC23C)O1 (centres unmarked) | Hep3B | cell growth or viability, MTT | – | 24 h | – | IC50 | > 30 µM |
| CCCN(CC(=O)N(CCC)CC(=O)N(CCC)CC(=O)N(CCC)CC(=O)N(CC(=O)N(CCC)CC(=O)N(CCC)CC(=O)N(CCC)CC(=O)N(CCC)CC(=O)N(CC(N)=O)Cc1cn(CCCNC(=O)CCCOc2cccc(-c3nc4ccc(-c5nc6ccc(N7CCN(C)CC7)cc6[nH]5)cc4[nH]3)c2)nn1)Cc1cn(CCCNC(=O)CCCOc2cccc(-c3nc4ccc(-c5nc6ccc(N7CCN(C)CC7)cc6[nH]5)cc4[nH]3)c2)nn1)C(=O)CNCc1cn(CCCNC(=O)CCCOc2cccc(-c3nc4ccc(-c5nc6ccc(N7CCN(C)CC7)cc6[nH]5)cc4[nH]3)c2)nn1 | C2C12 | flow cytometry | – | 5 µM, 48 h | – | propidium iodide-only positive cells | 0.24% |
| COc1ccc(Nc2c(C#N)cnc3ccc(Cl)cc23)cc1 | mouse primary embryonic cardiomyocytes | resazurin | – | 72 h, added: 30 µM heme | – | CC50 | > 100 µM |
| CCCCCCc1ccc(S(=O)(=O)N2CC2C(=O)N2CCCCC2)cc1 (centres unmarked) | Balb/c 3T3 fibroblasts | cytotoxicity, neutral red uptake | DMEM with 5% FBS | 24 h | – | IC50 | 10 ± 1 µM |
| Nc1ncnc2c1c(Br)cn2[C@@H]1O[C@H](CO)C[C@H]1O | MRC-5 SV2 | cytotoxicity, resazurin | medium with 5% FBS | 72 h | – | EC50 | 14.9 ± 3.4 µM |
| CN(C)C(=O)C1CN1S(=O)(=O)c1ccc2ccccc2c1 (centres unmarked) | Balb/c 3T3 fibroblasts | cytotoxicity, neutral red uptake | DMEM with 5% FBS | 24 h | – | IC50 | 9.6 ± 0.2 µM |
| CC(=O)N[C@H](C(=O)N[C@H](C(=O)N[C@@H](CCCNC(=N)N)C(=O)N1Cc2ccccc2C[C@H]1C(=O)N[C@@H](Cc1ccccc1)C(N)=O)C1CCCCC1)C(C)C | human PBMC | Bio-Plex multiplex, item: IL-4 | – | 250 µg/mL, 24 h | – | cytokine level | 1.2 ± 0.6 pg/mL |
| CC1(C)CCCC(C)(C2CCC3(C)C2C(O)CC2C4(C)CCC(O)C(C)(C)C4C(OC(=O)NC4CCCCC4)CC23C)O1 (centres unmarked) | Hep3B | cell growth or viability, MTT | – | 24 h | – | IC50 | > 30 µM |
| CN(C)C(=O)C1CN1S(=O)(=O)c1ccc(C(C)(C)C)cc1 (centres unmarked) | Balb/c 3T3 fibroblasts | cytotoxicity, neutral red uptake | DMEM with 5% FBS | 24 h | – | IC50 | 12 ± 1 µM |
| CC(C)=CCc1c2c(c(O)c3c(=O)c(-c4ccc(O)cc4)coc13)CC(C(C)(C)O)O2 (centres unmarked) | RAW264.7 | cell growth or viability, MTT | – | 6.25 µg/mL, 24 h | – | viability | 138% |
| O=[N+]([O-])c1ccc(-c2nc3c4ccccc4c4ccccc4c3[nH]2)cc1 | PHA-stimulated human PBMCs | MTS | – | 100 µM, 7 days | – | cytotoxicity | 46.3% |
